Assay results of several laboratories.
Numbered parts are unrelated; each lists some results of a single study. Positions count from the first letter of the parent shown.

Study 1 — technique: protein-binding microarray; form: double-stranded DNA, one strand shown; sample: in vitro; concentration: 940 nM top; setting: 60-bp whole probe; added: salmon DNA 0.4 mg/ml; relative to: random background probes; reading: higher = stronger binding; constant ends, left off below: GCCTAGCAC … GTCTTGATTCGCTTGACGCTGCTG
Target: Interferon regulatory factor 5, full length, phosphomimetic (IRF5, Homo sapiens, UniProt Q13568-2, residues 1-514, S451D/S453D/S456D/S462D)
| Strand | fitted relative affinity [z-score] |
| --- | --- |
| TTAGTACTGCTTTTCCTTTAGTGCTAG | 0.8 |
| TTAGGTATCGACTCTCGGTTAGTGCTA | 5.95 |
| TCAGGTTCCCATTCCAGACTGTGCTAG | 0.151 |
| CCTGGACGGGAGTGCGGTGCGTGCTAG | 0.281 |
| GGCGGTCTCGGACTGGGGACGTGCTAG | 0.667 |
| GACGATTTCGGGTATCGAGACGTGCTA | 1.57 |
| TTAGGTTTCGGTCTCGCTTAGTGCTAG | 14.3 |
| CTTGTTTTACAATTTGCTTTGTGCTAG | -0.0408 |

Study 2 — technique: RNA Bind-n-Seq; form: RNA; sample: in vitro; concentration: 20 nM; setting: 6-mer, flanks averaged, single round; added: 150 mM KCl; relative to: input library; reading: higher = stronger binding
Target: TAR DNA-binding protein 43, full length, His tag (TARDBP, Homo sapiens, UniProt Q13148, residues 1-414)
| Strand | 6-mer enrichment (R) |
| --- | --- |
| GGGCAG | 4.6 |
| GAGUCC | 0.816 |
| UAGUAU | 0.7 |
| GCCAGU | 0.887 |
| GGACAG | 1.89 |
| AGAGCC | 0.828 |
| UAAAUU | 0.623 |
| GUCAGU | 0.839 |

Study 3 — target: CREBRF, bZIP domain (human); technique: DHFR protein complementation; sample: yeast; relative to: wild-type JUN-FOS pair; reading: higher = stronger binding
Setting: single substitutions, most at no-binding floor
Parent: JUN, bZIP domain (human); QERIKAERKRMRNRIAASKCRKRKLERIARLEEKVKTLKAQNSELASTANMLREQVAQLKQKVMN; partner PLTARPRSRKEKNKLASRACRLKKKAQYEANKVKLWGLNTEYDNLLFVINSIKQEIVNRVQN
| Variant | binding fitness [natural log] |
| --- | --- |
| L38F | -1.49 |
| V56E | -1.48 |
| E44Y | -1.55 |
| L45E | -1.59 |
| T37R | -1.43 |
| K39F | -1.44 |
| E54T | -1.37 |
| R30C | -1.43 |

Further values, each from its own experiment
Parent: viral docking peptide; KKAKRRLFTISDS; partner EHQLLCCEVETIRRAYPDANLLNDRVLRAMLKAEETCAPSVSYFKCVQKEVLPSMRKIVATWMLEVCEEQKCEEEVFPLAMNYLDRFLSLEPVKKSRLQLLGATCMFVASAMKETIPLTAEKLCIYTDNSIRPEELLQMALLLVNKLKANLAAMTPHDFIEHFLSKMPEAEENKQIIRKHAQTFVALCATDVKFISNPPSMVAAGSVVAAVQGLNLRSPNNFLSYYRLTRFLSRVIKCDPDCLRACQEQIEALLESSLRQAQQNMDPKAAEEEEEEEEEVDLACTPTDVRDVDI
| Variant | target | test | system | setting | scale | measurement | value |
| --- | --- | --- | --- | --- | --- | --- | --- |
| KKAKRRLFAISDS [T9A] | CCND1, cyclin fold, Cln2 fusion (human) | yeast growth competition, sequencing | yeast | weak parent motif | relative to: not given, higher = stronger binding | normalised enrichment score | 0.395 |

Some of these lines once more (study 3):
| Variant | binding fitness [natural log] |
| --- | --- |
| E54T | -1.37 |
| L45E | -1.59 |
| T37R | -1.43 |
